Measured values from different studies.
Protocols differ between the studies behind these lines.
Matrix: Caco-2

Structure (SMILES) | tested at | time | pH | endpoint | value
CCCCC(CC)CNC(=N)NC(=N)NCCC (centres unmarked) | 5 µM | 2 h |  | Papp A→B | < 0.03 ×10⁻⁶ cm/s
N#Cc1cccc(-c2ccc(=O)n(Cc3cccc(-c4ncc(OCC5CCN(CC(=O)N6CCN(c7ccc8c(c7)C(=O)N(C7CCC(=O)NC7=O)C8=O)CC6)CC5)cn4)c3)n2)c1 (centres unmarked) | 2 µM | 2 h | pH 7.4 | Papp B→A | 0.79 ×10⁻⁶ cm/s
CCC(CC)CNC(=N)NC(=N)NCCCCCCNC(=N)NC(=N)NCC(CC)CC | 5 µM | 2 h |  | Papp B→A | 0.53 ×10⁻⁶ cm/s
N#Cc1ccnc(N2C(=O)[C@@H](O)C[C@H]2C(=O)N(c2cc(F)cc(F)c2)[C@H](C(=O)NC2CC(F)(F)C2)c2ccccc2Cl)c1 |  |  |  | Papp A→B | 1.9 ×10⁻⁶ cm/s
O=c1c(-c2cnn(-c3ccccc3)c2)c(C(F)(F)F)oc2c(O)c(O)ccc12 |  |  |  | Papp A→B | 31.4 ×10⁻⁶ cm/s
CNC(=N)NC(=N)NCCCCCCNC(=N)NC(=N)NC | 5 µM | 2 h |  | Papp A→B | 0.62 ×10⁻⁶ cm/s
CS(=O)(=O)c1ccc(-c2cc(Cl)c(C(=O)N[C@@H](CNC(=O)CNC(=O)c3cccc(NC(=N)N)c3)C(=O)O)c(Cl)c2)cc1 |  |  |  | Papp B→A | 0.5 ×10⁻⁶ cm/s
N#Cc1ccnc(N2C(=O)CC[C@H]2C(=O)N(c2cc(F)cc(F)c2)[C@H](C(=O)NC2CC(F)(F)C2)c2ccccc2Cl)c1 (stereo in doubt) |  |  |  | Papp A→B | 14.2 ×10⁻⁶ cm/s
O=C(CNC(=O)c1cccc(NC2=NCC(F)(F)CN2)c1)NC[C@H](NC(=O)c1c(Cl)cc(-c2ccccc2)cc1Cl)C(=O)O |  |  |  | Papp B→A | 2.1 ×10⁻⁶ cm/s
CO[C@@H](C[C@H]1C(C)=CC[C@@H]2[C@]3(C)C[C@H](O[C@@H]4O[C@@H](C)[C@H](O)[C@@H](O)[C@H]4O)[C@@H](O)C(C)(C)[C@H]3CC[C@]21C)[C@H](N)C(=O)O | 5 µM | 1 h |  | Papp B→A | 0.07 ×10⁻⁶ cm/s
O=C(CNC(=O)c1cccc(NC2=NCCCO2)c1)NC[C@H](NC(=O)c1c(Cl)cc(-c2ccccc2)cc1Cl)C(=O)O |  |  |  | Papp A→B | 0.5 ×10⁻⁶ cm/s
O=c1c(-c2cnn(-c3ccc(Cl)cc3)c2)c(C(F)(F)F)oc2c(O)c(O)ccc12 |  |  |  | Papp B→A | 52.7 ×10⁻⁶ cm/s
O=c1[nH]c2ccccc2c(=O)n1O | 10 µM |  |  | Papp B→A | 4.9 ×10⁻⁶ cm/s
O=C(CNC(=O)c1cccc(NC2=NCCCN2)c1)NC[C@H](NC(=O)c1c(Cl)cc(-c2ccccc2)cc1Cl)C(=O)O |  |  |  | Papp B→A | 1.1 ×10⁻⁶ cm/s
CCCCC(CC)CNC(=N)NC(=N)NCCCCCCCCNC(=N)NC(=N)NCC(CC)CCCC (centres unmarked) | 5 µM | 2 h |  | Papp B→A | 0.3 ×10⁻⁶ cm/s
N#C/N=C(\N)Nc1cccc(C(=O)NCC(=O)NC[C@H](NC(=O)c2c(Cl)cc(-c3ccccc3)cc2Cl)C(=O)O)c1 |  |  |  | Papp A→B | 0.15 ×10⁻⁶ cm/s
CN1CCC[C@@H]1C(=O)N[C@@H](Cc1ccc(-c2ccccc2)cc1)B(O)O | 5 µM | 1 h |  | Papp B→A | 14 ×10⁻⁶ cm/s
